Assay results from different studies.
Lines come from different studies, so protocols differ. Several values in a cell are separate wells, animals, samples, runs or records. ± gives the spread as reported.
UniProt P60893, sequence (whole entry, looked up): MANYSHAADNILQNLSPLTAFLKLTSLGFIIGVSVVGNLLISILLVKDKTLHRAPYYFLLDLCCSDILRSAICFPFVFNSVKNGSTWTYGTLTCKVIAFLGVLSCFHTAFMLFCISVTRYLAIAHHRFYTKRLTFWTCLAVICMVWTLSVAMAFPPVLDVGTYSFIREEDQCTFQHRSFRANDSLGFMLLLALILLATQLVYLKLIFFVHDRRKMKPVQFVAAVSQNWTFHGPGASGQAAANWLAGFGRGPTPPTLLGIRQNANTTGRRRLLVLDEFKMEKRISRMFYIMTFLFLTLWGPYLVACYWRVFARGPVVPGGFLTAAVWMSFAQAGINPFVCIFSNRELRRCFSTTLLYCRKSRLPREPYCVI
UniProt P21333, sequence (whole entry, looked up): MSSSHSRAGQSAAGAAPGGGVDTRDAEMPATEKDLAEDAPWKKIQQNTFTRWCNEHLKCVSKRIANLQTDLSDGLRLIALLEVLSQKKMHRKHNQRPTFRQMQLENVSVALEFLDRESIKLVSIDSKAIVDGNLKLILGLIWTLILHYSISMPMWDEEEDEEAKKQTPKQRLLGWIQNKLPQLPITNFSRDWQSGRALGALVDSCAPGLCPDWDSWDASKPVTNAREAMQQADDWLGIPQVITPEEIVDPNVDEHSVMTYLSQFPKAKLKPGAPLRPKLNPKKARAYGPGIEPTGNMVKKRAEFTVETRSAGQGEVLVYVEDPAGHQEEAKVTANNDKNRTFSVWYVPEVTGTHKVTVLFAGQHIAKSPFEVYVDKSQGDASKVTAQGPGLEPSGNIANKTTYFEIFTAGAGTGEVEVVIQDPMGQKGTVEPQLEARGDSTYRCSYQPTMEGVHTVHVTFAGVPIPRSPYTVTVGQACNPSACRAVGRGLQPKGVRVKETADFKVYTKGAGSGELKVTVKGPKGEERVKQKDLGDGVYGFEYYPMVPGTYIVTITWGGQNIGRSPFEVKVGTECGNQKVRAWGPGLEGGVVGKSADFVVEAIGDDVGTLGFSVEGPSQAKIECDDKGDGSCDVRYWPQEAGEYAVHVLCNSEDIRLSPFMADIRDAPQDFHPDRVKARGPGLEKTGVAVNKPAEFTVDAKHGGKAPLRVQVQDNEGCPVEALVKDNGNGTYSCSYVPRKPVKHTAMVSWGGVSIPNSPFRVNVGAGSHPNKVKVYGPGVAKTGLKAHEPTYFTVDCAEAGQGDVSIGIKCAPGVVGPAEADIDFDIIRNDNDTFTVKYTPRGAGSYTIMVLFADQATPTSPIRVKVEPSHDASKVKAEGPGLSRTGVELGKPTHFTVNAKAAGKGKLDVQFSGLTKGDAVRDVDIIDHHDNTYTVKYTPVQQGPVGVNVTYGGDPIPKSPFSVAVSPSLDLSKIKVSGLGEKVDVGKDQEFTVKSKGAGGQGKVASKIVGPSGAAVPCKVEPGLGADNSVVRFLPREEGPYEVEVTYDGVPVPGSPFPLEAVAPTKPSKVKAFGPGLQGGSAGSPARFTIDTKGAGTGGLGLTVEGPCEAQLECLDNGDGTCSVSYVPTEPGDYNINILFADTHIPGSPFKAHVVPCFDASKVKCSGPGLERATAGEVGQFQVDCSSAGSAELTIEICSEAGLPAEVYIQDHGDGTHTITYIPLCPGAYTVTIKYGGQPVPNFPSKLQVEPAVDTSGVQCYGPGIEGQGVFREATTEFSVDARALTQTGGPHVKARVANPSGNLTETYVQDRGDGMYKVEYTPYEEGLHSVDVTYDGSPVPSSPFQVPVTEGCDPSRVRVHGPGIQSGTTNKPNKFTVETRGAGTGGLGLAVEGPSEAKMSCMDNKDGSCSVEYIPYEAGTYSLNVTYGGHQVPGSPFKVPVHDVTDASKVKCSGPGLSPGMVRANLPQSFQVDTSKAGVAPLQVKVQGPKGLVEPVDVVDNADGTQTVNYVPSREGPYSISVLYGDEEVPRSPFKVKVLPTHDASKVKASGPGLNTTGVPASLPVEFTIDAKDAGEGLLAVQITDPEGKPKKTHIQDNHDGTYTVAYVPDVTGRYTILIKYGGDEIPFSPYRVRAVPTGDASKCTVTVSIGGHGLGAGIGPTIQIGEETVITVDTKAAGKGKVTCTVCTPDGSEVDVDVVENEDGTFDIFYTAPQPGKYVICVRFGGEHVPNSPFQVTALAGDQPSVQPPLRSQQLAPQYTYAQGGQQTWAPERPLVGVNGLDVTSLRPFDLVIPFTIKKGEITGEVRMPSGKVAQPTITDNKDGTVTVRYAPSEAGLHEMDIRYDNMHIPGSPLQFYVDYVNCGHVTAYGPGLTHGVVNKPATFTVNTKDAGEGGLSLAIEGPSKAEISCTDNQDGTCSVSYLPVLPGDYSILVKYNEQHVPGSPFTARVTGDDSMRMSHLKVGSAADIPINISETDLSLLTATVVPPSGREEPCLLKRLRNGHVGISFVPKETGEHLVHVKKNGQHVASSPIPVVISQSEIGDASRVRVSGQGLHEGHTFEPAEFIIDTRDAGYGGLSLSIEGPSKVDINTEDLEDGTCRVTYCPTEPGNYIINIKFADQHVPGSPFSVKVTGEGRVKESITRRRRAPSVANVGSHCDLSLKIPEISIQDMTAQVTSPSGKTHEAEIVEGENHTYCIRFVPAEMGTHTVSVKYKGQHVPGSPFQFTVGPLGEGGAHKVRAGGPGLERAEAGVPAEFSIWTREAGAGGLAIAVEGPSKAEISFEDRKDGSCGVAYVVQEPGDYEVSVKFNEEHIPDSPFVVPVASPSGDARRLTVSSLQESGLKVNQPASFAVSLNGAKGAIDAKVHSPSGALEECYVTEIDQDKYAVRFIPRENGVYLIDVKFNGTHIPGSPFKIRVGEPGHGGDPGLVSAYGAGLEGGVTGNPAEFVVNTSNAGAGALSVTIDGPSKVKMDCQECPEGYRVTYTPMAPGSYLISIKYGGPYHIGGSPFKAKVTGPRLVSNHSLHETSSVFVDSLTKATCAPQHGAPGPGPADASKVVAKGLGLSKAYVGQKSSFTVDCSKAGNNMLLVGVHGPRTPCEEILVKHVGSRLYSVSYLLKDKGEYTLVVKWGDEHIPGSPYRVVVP

CC(C)[C@H](NC(=O)[C@H](CCCNC(=N)N)NC(=O)N[C@@H](Cc1ccccc1)C(=O)O)C(=O)N[C@H](C=O)CCCNC(=N)N gave an EC50 of 2 ± 0.2 µM (human coronavirus 229E; viral replication; Huh7.5).
COc1cc(CCC[P+](c2ccccc2)(c2ccccc2)c2ccccc2)c(OC)c2c1OCO2.[I-] has a GI50 of -5.63 log M (SF-295; SRB).
COc1ccc(-c2cc(C(F)(F)F)c3c(N)c(C(=O)N4CC(C)OC(C)C4)sc3n2)cc1 (centres unmarked) has an IC50 of over 50 µM (Mycobacterium tuberculosis; growth inhibition; H37Rv LepB under-expressing).
For O=C(NC1COC1)c1cc(-c2ccoc2)ccc1OCCc1cccc(F)c1, the selectivity index was 32 (Mycobacterium tuberculosis; H37Rv-LP; relative to: HepG2 CC50 over Mtb IC90).
COC(=O)OCc1cc2[nH]c(=S)n(Cc3cncnc3)c(=O)c2cc1Cl has an MIC90 of 0.27 µM (Mycobacterium tuberculosis; PptT conditional knockdown).
With O=C(c1ccc(OCCN2CCCCC2)cc1)c1c(-c2ccc(O)cc2)sc2cc(O)ccc12 the EC50 was 4.5 µM (human coronavirus 229E; viral replication; MRC-5; 48 h).
CN(C)CCC(c1cccnc1)n1c(=S)[nH]c2ccc(Cl)cc2c1=O (centres unmarked) has an MIC90 of over 100 µM (Mycobacterium tuberculosis; PptT conditional knockdown).
CC(C)[C@@H]1NC(=O)[C@H](Cc2ccccc2)NC(=O)[C@@H]2NC(=O)[C@H](Cc3ccccc3)NC(=O)[C@@H]3CCCN3C(=O)CNC(=O)[C@H](Cc3ccccc3)NC(=O)[C@@H]3CNCCCC[C@@H](C(=O)O)NC(=O)[C@@H]4NC(=O)[C@H](CC(N)=O)NC(=O)CNC(=O)[C@H]([C@@H](O)C(=O)O)NC(=O)[C@H](CSC[C@@H](NC(=O)[C@H](CCC(N)=O)NC(=O)[C@H](CCCCNC(=O)c5ccc(NN)nc5)NC(=O)[C@@H](N)CS[C@H]4C)C(=O)N[C@@H](CS[C@H]2C)C(=O)N3)NC1=O [technetium-99m labelled] gave a tissue uptake of 0.2 ± 0.06 %ID/g (rat, saline control, lung; intravenous, 2 h after tracer, tracer 24 h after reperfusion).
For O=C(O)C[C@H](NC(=O)[C@H](CC(=O)O)NC(=O)[C@H](CC(=O)O)NC(=O)[C@H](CC(=O)O)NC(=O)[C@H](CC(=O)O)NC(=O)[C@H](CC(=O)O)NC(=O)[C@H](CC(=O)O)NC(=O)[C@H](CC(=O)O)NC(=O)[C@H](CC(=O)O)NC(=O)[C@H](CC(=O)O)NC(=O)[C@H](CC(=O)O)NC(=O)[C@H](CCCCNC(=O)c1ccc(C(=O)NCCOCCOB2BBBBBB3BBBB3B2)cc1)NC(=O)CN1CCN(CC(=O)O)CCN(CC(=O)O)CCN(CC(=O)O)CC1)C(=O)O [gallium-67 labelled], the tissue uptake was 0.46 %ID/g (gamma counting; mouse, ddY, male, 6 weeks old, blood; intravenous, 37 kBq, 1 h).
Cc1ccc(-c2cc(C(F)(F)F)c3c(N)c(C(=O)Nc4cccc(C)c4C)sc3n2)cc1 has an IC50 of over 100 µM (Mycobacterium tuberculosis; growth inhibition; H37Rv LepB under-expressing).
Cn1c(=O)ccc2ccc(F)c(CCNC[C@H]3CN(c4cnc5c(n4)NC(=O)CO5)C(=O)O3)c21 gave an MIC90 of 0.5 µg/mL (Burkholderia cepacia).
Cc1cscc1-c1ccc(OCCc2cccc(F)c2)c(C(N)=O)c1 has a selectivity index of 26 (Mycobacterium tuberculosis; H37Rv-LP; relative to: HepG2 CC50 over Mtb IC90).
With NC(=O)c1nc(F)c[nH]c1=O the reporter activity was 94.6% (lymphocytic choriomeningitis virus; reporter gene; BHK-21; 50 µM, minigenome, Gaussia luciferase; relative to: DMSO).
COc1c(N2CC3CCCNC3C2)c(F)cc2c(=O)c(C(=O)OCc3cnc([N+](=O)[O-])s3)cn(C3CC3)c12 (centres unmarked) gave an MIC of 0.06 µM (Mycobacterium chelonae; ATCC 35752).
With COc1ccc(-c2cc(C(F)(F)F)c3c(N)c(C(=O)N4CC(F)(F)C4)sc3n2)cc1 the IC50 was over 100 µM (Mycobacterium tuberculosis; growth inhibition; H37Rv LepB under-expressing).
CNC(=O)c1cc(C)ccc1OCCc1ccc(Br)cc1 has an IC90 of 0.33 µM (Mycobacterium tuberculosis; growth; H37Rv-LP; 120 h).
NC(=O)c1cncc(Cn2c(=S)[nH]c3cc(CO)c(Cl)cc3c2=O)c1 has an MIC90 of 3.14 µM (Mycobacterium tuberculosis; PptT conditional knockdown).
For C[C@H]1COc2c(N3CCN(C)CC3)c(F)cc3c(=O)c(C(=O)O)cn1c23, the MIC was 1 µg/mL (Burkholderia cepacia; 6349).
Under “log2 fold change”, CC[C@H](C)[C@@H]1NC(=O)[C@@H]2CCCN2C(=O)[C@H](CC(C)C)NC(=O)[C@H](CC(C)C)NC(=O)CNC(=O)[C@@H](NC(=O)[C@@H](NC(=O)[C@H](CC(=O)O)NC(=O)CNC(=O)[C@@H](NC(=O)[C@H](C)NC(=O)CNC(=O)[C@H](CCCCN)NC(=O)[C@H](CC(C)C)NC(=O)[C@H](CC(C)C)NC(=O)[C@H](CCCCN)NC(=O)CNC(=O)[C@@H](NC(=O)[C@@H](N)CC(C)C)C(C)C)C(C)C)C(C)C)CSSC[C@@H](C(=O)O)NC1=O is recorded as -2.55 (RNA-seq, measured: Ltb mRNA; mouse traumatic brain injury, frontal cortex and hippocampus; dose not given; relative to: TBI plus compound vs TBI).
For NC(=O)c1ncn([C@@H]2O[C@H](CO)[C@@H](O)[C@H]2O)n1, the EC50 was 6.2 µM (Influenza A virus H1N1; cytopathic effect, MTS; MDCK).
CCNC(=O)[C@@H](NC(=O)c1ccccc1NC(=O)c1ccc(OC)cc1)C(C)C gave an EC50 of over 50 µM (human coronavirus 229E; viral replication, plaque reduction; MRC-5; 6 days).
With O=c1c2cc(Cl)c(CO)cc2[nH]c(=S)n1Cc1cccnc1 the MIC90 was 0.44 µM (Mycobacterium tuberculosis; PptT conditional knockdown).
Cc1nc(OCCc2cc(F)cc(F)c2)c(C(=O)NC(C)C)s1 gave an IC90 of 59 ± 17 µM (Mycobacterium tuberculosis; growth; H37Rv-LP; 120 h).
COc1ccc(-c2cc(C(F)(F)F)c3c(N)c(C(=O)Nc4cc(C)ccc4C)sc3n2)cc1 gave an IC50 of over 100 µM (Mycobacterium tuberculosis; growth inhibition; H37Rv LepB under-expressing).
CCOC(=O)C1=C[C@@H](OC(CC)CC)[C@H](NC(C)=O)[C@@H](N)C1 — result for “lung virus yield”: 11% (Influenza A virus; A/NWS/33 (H1N1), mouse, lung; oral, 0.2 mg/mouse/day, day 3; relative to: untreated infected control).
Nc1ncnc2c1ncn2C[C@H](O)CO gave an EC50 of over 250 µM (parainfluenza virus 3; viral replication; Vero).
CC[C@H](C)[C@H](NC(=O)[C@H](CCCCN)NC(=O)[C@@H](NC(=O)[C@H](Cc1ccc(O)cc1)NC(=O)[C@H](CCCCN)NC(=O)[C@H](CCCCN)NC(=O)CNC(=O)[C@H](CCCCN)NC(=O)[C@@H](NC(=O)[C@H](C)NC(=O)[C@H](CC(C)C)NC(=O)[C@H](Cc1c[nH]c2ccccc12)NC(=O)CNC(=O)[C@@H](NC(=O)[C@H](Cc1ccccc1)NC(=O)[C@H](CCCCN)NC(=O)[C@H](CC(C)C)NC(=O)[C@H](Cc1ccccc1)NC(=O)[C@H](C)NC(=O)CNC(=O)[C@@H](N)CCSC)C(C)C)[C@@H](C)O)C(C)C)C(=O)N[C@@H](C)C(=O)N[C@@H](Cc1c[nH]c2ccccc12)C(=O)N[C@@H](CC(=O)O)C(=O)N[C@@H](Cc1c[nH]cn1)C(=O)N[C@@H](CCCCN)C(=O)NCC(=O)N[C@H](C(=O)N[C@H](C(=O)N[C@@H](CCSC)C(=O)N[C@@H](CCCCN)C(=O)N[C@@H](Cc1c[nH]c2ccccc12)C(=O)N[C@@H](CC(C)C)C(=O)N[C@@H](CC(N)=O)C(=O)N[C@@H](C)C(=O)NCC(=O)N[C@@H](CCC(N)=O)C(=O)N[C@H](C(=O)N[C@@H](Cc1ccccc1)C(=O)N[C@H](C(=O)N[C@@H](Cc1c[nH]c2ccccc12)C(=O)N[C@H](C(=O)N[C@@H](Cc1ccc(O)cc1)C(=O)N[C@@H](CCC(=O)O)C(=O)N[C@@H](CCC(N)=O)C(=O)N[C@H](C(=O)N[C@@H](CCCCN)C(=O)N[C@@H](CCCCN)C(=O)N[C@@H](CC(C)C)C(=O)N[C@@H](Cc1c[nH]c2ccccc12)C(=O)N[C@H](C(=O)O)[C@@H](C)O)[C@@H](C)CC)C(C)C)[C@@H](C)O)[C@@H](C)O)[C@@H](C)CC)[C@@H](C)O has an MIC of over 62.5 µg/mL (Salmonella Paratyphi; CECT 554; 37 °C, non-formylated synthetic).
For NC(=O)c1cc(-c2ccsc2)cc(F)c1OCCc1cccc(F)c1, the selectivity index was 2 (Mycobacterium tuberculosis; H37Rv-LP; relative to: HepG2 CC50 over Mtb IC90).
C[C@H]1CN(c2n[nH]c3nc(N[C@H]4CC[C@H](NS(=O)(=O)CCC(F)(F)F)CC4)ncc23)CCO1 gave a relative abundance of 1.29 (Filamin-A (Homo sapiens, UniProt P21333); competitor, Kinobeads competition; human cell extract; 0.16 µM; relative to: vehicle).
For Cc1ccc(OCCc2cc(F)cc(F)c2)c(C(N)=O)c1, the selectivity index was 30 (Mycobacterium tuberculosis; H37Rv-LP; relative to: HepG2 CC50 over Mtb IC90).
The IC50 of COCCNC(=O)c1sc2nc(-c3ccc(OC)cc3)cc(C(F)(F)F)c2c1N is reported as over 100 µM (Mycobacterium tuberculosis; growth inhibition; H37Rv LepB under-expressing).
With Cc1cscc1-c1ccc(OCCc2cc(F)cc(F)c2)c(C(N)=O)c1 the IC90 was 0.62 ± 0.05 µM (Mycobacterium tuberculosis; growth; H37Rv-LP; 120 h).
For OC(Cn1cncn1)(Cn1cncn1)c1ccc(F)cc1F, the OD600 was 0.981 and 0.962 and 0.99 (Saccharomyces cerevisiae; cell growth; Pdr5 deleted, empty vector; 2^-2 µg/mL).
Nc1c(C(=O)N2CCOCC2)sc2nc(-c3ccoc3)ccc12: IC90 “inactive” (Mycobacterium tuberculosis; H37Rv wild type; 120 h).
For C[C@@H](O)[C@H]1C(=O)N2C(C(=O)O)=C(S[C@@H]3CN[C@H](C(=O)N(C)C)C3)[C@H](C)[C@H]12, the MIC was 2 µg/mL (Burkholderia cepacia; 6349).
For CCOC(=O)c1c(C)nc(NCCCCNc2ccnc3cc(Cl)ccc23)nc1C, the EC50 was over 20 µM (parainfluenza virus 3; viral replication; Vero).
For CN1CCCC(Cn2c(=S)[nH]c3ccc(Cl)cc3c2=O)C1 (centres unmarked), the MIC90 was over 100 µM (Mycobacterium tuberculosis; PptT conditional knockdown).
For COc1ccc(N2C(=O)N(c3c(C)cccc3Cl)Cc3cnc(Nc4ccc(C5CCN(C)CC5)cc4OC)nc32)nc1, the inhibition was 3% (MAP2K2 (Homo sapiens, UniProt P36507); kinase activity, inhibitor; 0.5 µM, MEK2).
With Cc1ccc(OCCc2cc(F)cc(F)c2)c(C(=O)NC(C)C)c1 the IC90 was 19 ± 12 µM (Mycobacterium tuberculosis; growth; H37Rv-LP; 120 h).
O=c1c2cc(Cl)cnc2[nH]c(=S)n1Cc1cccnc1 gave an MIC90 of 7.13 µM (Mycobacterium tuberculosis; PptT conditional knockdown).
Under “log2 fold change”, Oc1ccc2c3c1O[C@H]1[C@@H](O)CC[C@@]4(O)[C@@H](C2)N(CC2CCC2)CC[C@]314 is recorded as 0.022 (Probable G-protein coupled receptor 85 (GPR85, Homo sapiens, UniProt P60893); β-arrestin recruitment, TANGO luminescence, measured: GPR85; concentration not given; relative to: basal luminescence).
For COc1c(CCC[P+](c2ccccc2)(c2ccccc2)c2ccccc2)cc2c(c1OC)OCO2.[I-], the LC50 was over -4 log M (MOLT-4; SRB).
With COc1ccc(-c2cc(C(F)(F)F)c3c(N)c(C(=O)Nc4c(C)cccc4C)sc3n2)cc1 the IC50 was over 100 µM (Mycobacterium tuberculosis; growth inhibition; H37Rv LepB under-expressing).
The MIC90 of O=c1c2ccncc2[nH]c(=S)n1Cc1cccnc1 is reported as 4.95 µM (Mycobacterium tuberculosis; PptT conditional knockdown).
For COc1ccc(-c2cc(C(F)(F)F)c3c(N)c(C(=O)NCCc4ccccc4)sc3n2)cc1, the selectivity index was under 1 (Mycobacterium tuberculosis; H37Rv wild type; relative to: HepG2 IC50 over M. tuberculosis IC90).
The MIC90 of N#Cc1cc2[nH]c(=S)n(Cc3cccnc3)c(=O)c2cc1Cl is reported as 0.42 µM (Mycobacterium tuberculosis; PptT conditional knockdown).
The IC50 of COc1ccc2cc1Oc1ccc(cc1)C[C@H]1c3cc(c(OC)cc3CCN1C)Oc1c(O)c(OC)cc3c1[C@H](C2)N(C)CC3 is reported as 4.45 ± 1 µM (Influenza A virus; viral replication; MDCK, A/HanFang/359/95 (H3N2); 48 h).
